Assay results gathered from unrelated publications.
Every numbered part comes from another study and shows a few of its results, in no order.

Series 1 — technique: RNA Bind-n-Seq; form: RNA; medium: in vitro; concentration: 200 nM; setting: whole 134-nt RNA, ends assumed; added: 150 mM KCl; reference: input library; direction: higher = stronger binding; measurement: log2 enrichment
Target: Fragile X messenger ribonucleoprotein 1, C-terminal low-complexity region (Fmr1, Mus musculus, UniProt P35922)
Constant ends, left off below: GGGAGUUCUACAGUCCGACGAUC … UGGAAUUCUCGGGUGUCAAGG
Strand = UCUCAGCACCCUCGUGAAACUGGACAAGAAGCCAGUGGAGACCAACGGUCCUGAUGCCAAUCACGAGUACAGUACAAGCAGCCAGCAUAU; value = -0.465
Strand = UUUCUUCCCCCACAGUUCAUCCAUGAGCUCGGAUUUCCCACAUUACAACUUCAGGAUGCCUAAUAUUGGAUUCCAGAAUCUGCCUCUCAA; value = 0.828
Strand = UGGGAGGUGGAUUUUGUUUAUUUUUUUAGCUCAUUUCCAGGGGUGGGAAUUUUUUUUUAAUAUGUGUCAUGAAUAAAGUUGUUUUUGAUA; value = 0.185
Strand = UCCUGUGCUACACAUCGUAUGUACCGAAUCGGGUUUUUUGGGUUUUUUGGGUUUUUUGGAAAGUAUUAUGUUACGCCGUUCGGAUCUGCA; value = 0.17
Strand = UCCUGUGCUACACAUCGUAUGUACCGAAUCGGGAAAAAAAGGGUUUUUGGGUUUUUGGGAAAGUAUUAUGUUACGCCGUUCGGAUCUGCA; value = -0.149
Strand = GUCCUGUGCUACACAUCGUAUGUACCGAAUCGGGGUGGGGUUUUUGGGGAAAAAGGGGAAAGUAUUAUGUUACGCCGUUCGGAUCUGCAC; value = 0.483
Strand = CACAGACAACACGCACCCACACAGACACAGAGGGAAGGGGUUGGGAUGGGGACAGGGUGCACAGCAGGGCGGGGUAGCACCCCAGCCCCU; value = 1.35
Strand = ACCAUGCAGGUGGGCAUCUUUGGGAAGUGGGGCAAGGGGGGGAUAGGGAGGGGGGUAACAAAUUGGGAACAGGUGGUCCCAGGUCGUUUC; value = 0.548
Strand = CUGUGCUACACAUCGUAUGUACCGAAUCGGGGAAAAAGGGGAAAAAGGGGAAAAAAAGGGGAAAGUAUUAUGUUACGCCGUUCGGAUCUG; value = -0.378

Series 2 — technique: RNA Bind-n-Seq; form: RNA; medium: in vitro; concentration: 365 nM; reference: no-protein control; direction: higher = stronger binding; measurement: RBNS enrichment (R)
Target: RNA binding protein fox-1 homolog 2, RRM domain, GST-SBP tag (RBFOX2, Homo sapiens, UniProt O43251-10, residues 100-194)
Setting: natural RNA segment, single round, ends assumed
Constant ends, left off below: GGGAGUUCUACAGUCCGACGAUC … UGGAAUUCUCGGGUGCCAA
Residues (chain): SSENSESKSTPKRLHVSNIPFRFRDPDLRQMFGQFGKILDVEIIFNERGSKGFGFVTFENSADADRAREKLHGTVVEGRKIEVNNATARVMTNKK
Strand = UAAGGAGACGAAGACCUAACGGGGCACUGAGGCCGGGCUGCUUUAGGAUCCCAAGUGGCAAGAAAGCUCACAUUUUUUGAGUUCAAAUGCUACUGUCUAAGCGCAAAGUC; value = 0.301
Strand = GUAGGGUAAGGGAGAGGGACCCUGCCGGUGUUCACUGGGGAUUCUUUCUUUUGGUCCUUCCUGGAAUGAACAGGUUCCCUCCCUGCCACCUGUGAGGAGAGUUGGGGCCC; value = 0.298
Strand = GACCCUUGCUGCUCCCGUGGCCUGGACACGCUGGGGAGCUUCUCACACCUACCCCUACCGUCCAGCCUGGCCUCUUCCCUGAAUCAGCUUCAAGAUGGCACCAGCUCUUU; value = 0.764
Strand = CCCAUGUGAUGCCCUGUGCUGUAAGAUAUCAGAAAGACCUGGAACAAGGCAAACUUUAUGUCCUCCUGGCAUGUUAUUGAUAACAGAGCCAGGAAGUCCAGUGUACAUUA; value = 0.36
Strand = GGAGGAGGGUGCCACCCUCUCCCUGCCAGGGGCCUGGGGACCCUCUCCCUGGCUGCCUCAGGCUUCUCUUACGAAGAGGAAACGCAAAAAAAGAAAAGGAAAAACCCCGU; value = 0.378
Strand = UCGGCCGAAGACCCAAGAAGGCCUAGUUGCCCGCUGGGCCUGGGGCCCUGCCCAUGCCUGGGCCAGAGUGGCGCUGGGGCCUCGGCUUCCCUUUGGCUCCUGGAAGGCAG; value = 0.293
Strand = ACACGGCAUGGGUUUGUUGACACUUUAAUUUUGCUAUAAAUGUGUGGAAUCACAAGUUGCUGUGAUACUUCAUUUUUAAAUUGUGAACUUUGUACAAAUUUUGUCAUGCU; value = 1.94
Strand = AUUGUAAAGAAACGGAAAAAGUCACAAAAAAGUUUGUAUAAAGACAUAUUUUUGUACUACAUGGGGACUCUUCCUGCAUGUCAGCAAUAAAACUUCCUGAUCUGGAACCA; value = 2.52

Series 3 — technique: protein binding microarray; form: double-stranded DNA, one strand shown; medium: in vitro; concentration: not given; reference: not given; direction: higher = stronger binding; measurement: E-score
Target: Histone acetyltransferase KAT6A, winged helix 2, GST fusion (KAT6A, Homo sapiens, UniProt Q92794, residues 85-181)
Setting: 8-mer, flanks averaged, mean of 2 arrays, mostly near background
Residues (chain): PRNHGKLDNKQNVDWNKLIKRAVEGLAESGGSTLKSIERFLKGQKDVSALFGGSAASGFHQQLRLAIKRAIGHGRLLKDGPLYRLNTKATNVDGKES
Strand = TATCTGGA; value = -0.0818
Strand = ATACTCTC; value = -0.0383
Strand = ACTATGAT; value = 0.0582
Strand = GTGGACCA; value = 0.062
Strand = GTAACGTA; value = -0.111
Strand = CTTGCTAC; value = 0.12
Strand = ATCAGTCA; value = -0.0902
Strand = CCAGTGTC; value = -0.144
Strand = CCGACAAC; value = 0.147
Strand = GTTCTTGA; value = 0.0207
Strand = CACCCGCA; value = 0.126
Strand = AAGCTGCG; value = 0.225
Strand = AAGGTCAT; value = -0.16
Strand = CCATTGAG; value = 0.0472
Strand = AAATGGGG; value = -0.143
Strand = CTTGGAGA; value = -0.0219
Strand = CCACATAA; value = 0.0241
Strand = AATCTCCA; value = -0.0458
Strand = GTCCTAAC; value = -0.169
Strand = ACTGGGGG; value = -0.0491
Strand = AGTGCCAA; value = 0.125
Strand = ATTCATGC; value = 0.00569
Strand = CGCTCTTA; value = 0.127
Strand = AAGGGGCA; value = 0.133

Series 4 — technique: RNA Bind-n-Seq; form: RNA; medium: in vitro; concentration: 100 nM; reference: input RNA pool; direction: higher = stronger binding; measurement: bound/input enrichment
Target: RING finger protein unkempt homolog, zinc fingers 1-6, SBP tag (UNK, Homo sapiens, UniProt Q9C0B0, residues 30-357)
Sequence of UniProt Q9C0B0 (30-357, looked up): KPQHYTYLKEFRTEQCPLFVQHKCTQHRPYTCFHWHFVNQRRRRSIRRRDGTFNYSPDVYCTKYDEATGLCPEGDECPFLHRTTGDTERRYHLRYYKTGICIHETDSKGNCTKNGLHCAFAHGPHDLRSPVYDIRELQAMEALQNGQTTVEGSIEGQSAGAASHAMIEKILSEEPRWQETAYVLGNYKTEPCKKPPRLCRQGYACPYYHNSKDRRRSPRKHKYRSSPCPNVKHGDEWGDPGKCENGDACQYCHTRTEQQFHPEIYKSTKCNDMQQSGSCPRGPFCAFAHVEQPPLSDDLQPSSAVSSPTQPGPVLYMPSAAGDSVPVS
Setting: RNA with constant flanks, vertebrate orthologous sites, ends assumed
Constant ends, left off below: GGGAGUUCUACAGUCCGACGAUC … CAACAGAGGAUUGAGCAUCA
Strand = UCUAAGAAUCAGAUGCUUUUUGUUUUCUUUGGGUCUCUGUUAACCUAUCUAUUGUUCUAUUAGUCCCUCUCUUGCACAAAUAUCGUACUUUAAAAUUGUGUUUAUGUAAAACAGGACUGA; value = 0.25 ratio
Strand = UUAUCUUAGGAUGAAGCUGUUAAACCAGAUGUCACGAGUCUGGAAAACAGAUGGCCUAUCAAGUUGUUCUUACAGAUUACUCUCCGUGGAACACAAUCCUUUAUACAUCAACGUCACAGU; value = 0.34 ratio
Strand = AGCGGUUAGGGUGGGCCGUUCCUCUGCAUUUCCCAUGAGGAGGAAAGCCCAAAUCGAUGACACACAUUUCACACAUCUGAUGAUGAUCUUUUUGUUUUCUGCUUUUACGUAUGCAUCAAA; value = 0.46 ratio
Strand = UCAGUCUUCCACUUACGGUUGGCCUCAGAUCUAUAGGAUUUAUGACAAAUGUAUUAUAUCUAGUUAAGUUGAGUUUAAUAUUUUUUUAUUAGCCUGUAAAUAAAGAUGGCAUCUUCUACA; value = 0.719 ratio
Strand = AUUAAAUGCAUAUCAAAUGCUGGAUAUCCCAUUAAACCAUCAUUUAGGAUAGAUGUUUGUUAUAAUUAAGCUACAAAUAGUUAUAAUUAAGCUACAAAUAUUAAACCAGAAAUGCACUGC; value = 0.283 ratio
Strand = UCCUCUGAAUCCCAUAUCUUCUGUUUCAUAGUGCAGAAGUAUUCUUUUCAAUUAUAUUAUUAGUGGACUUGUUAUAAUUUUAGAGAAACUUUGAGUACAGAUACUGUGAGCUUACAUGGA; value = 1.59 ratio
Strand = AUCUAUCUCCGUAAUAACCUGAGAUUUUCAAAGACAGGUUUUUUUUUUUUUUUUUUACAGUUUAGUACUUGGUUUCUACGAGGAGGACUAAACUCAUGCUUAUAGCUACGUGUGGUCUCC; value = 1.45 ratio
Strand = UGGGUUACUCCUAUUAUUAUCAAGUAGCUGGAAUUGUGAAGGUCGGAGUAGUUAGAUCUUUAGCUUUUAUUCCUUAUUUUUUUUGUAUUACUCUCCAUGUGUAUAAAUUAUUGAUCAUGU; value = 5.07 ratio
